{"data": "Experimental data gathered from unrelated publications", "note": "Parts stem from different laboratories: compare values within a part only.", "UniProt Q13557, sequence (whole entry, looked up)": "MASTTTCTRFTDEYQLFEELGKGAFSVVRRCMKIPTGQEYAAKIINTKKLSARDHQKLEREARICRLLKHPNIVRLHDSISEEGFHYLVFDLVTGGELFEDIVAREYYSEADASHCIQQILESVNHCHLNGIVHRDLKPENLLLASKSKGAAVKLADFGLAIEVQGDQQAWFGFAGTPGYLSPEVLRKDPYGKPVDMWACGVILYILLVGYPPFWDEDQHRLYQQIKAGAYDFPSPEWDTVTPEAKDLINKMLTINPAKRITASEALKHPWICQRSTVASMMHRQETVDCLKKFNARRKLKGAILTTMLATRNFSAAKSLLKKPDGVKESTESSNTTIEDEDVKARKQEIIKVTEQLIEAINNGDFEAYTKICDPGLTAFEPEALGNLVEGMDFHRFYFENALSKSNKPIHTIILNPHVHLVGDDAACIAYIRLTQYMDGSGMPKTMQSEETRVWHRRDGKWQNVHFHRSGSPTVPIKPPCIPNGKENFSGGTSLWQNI", "UniProt P53355, sequence (whole entry, looked up)": "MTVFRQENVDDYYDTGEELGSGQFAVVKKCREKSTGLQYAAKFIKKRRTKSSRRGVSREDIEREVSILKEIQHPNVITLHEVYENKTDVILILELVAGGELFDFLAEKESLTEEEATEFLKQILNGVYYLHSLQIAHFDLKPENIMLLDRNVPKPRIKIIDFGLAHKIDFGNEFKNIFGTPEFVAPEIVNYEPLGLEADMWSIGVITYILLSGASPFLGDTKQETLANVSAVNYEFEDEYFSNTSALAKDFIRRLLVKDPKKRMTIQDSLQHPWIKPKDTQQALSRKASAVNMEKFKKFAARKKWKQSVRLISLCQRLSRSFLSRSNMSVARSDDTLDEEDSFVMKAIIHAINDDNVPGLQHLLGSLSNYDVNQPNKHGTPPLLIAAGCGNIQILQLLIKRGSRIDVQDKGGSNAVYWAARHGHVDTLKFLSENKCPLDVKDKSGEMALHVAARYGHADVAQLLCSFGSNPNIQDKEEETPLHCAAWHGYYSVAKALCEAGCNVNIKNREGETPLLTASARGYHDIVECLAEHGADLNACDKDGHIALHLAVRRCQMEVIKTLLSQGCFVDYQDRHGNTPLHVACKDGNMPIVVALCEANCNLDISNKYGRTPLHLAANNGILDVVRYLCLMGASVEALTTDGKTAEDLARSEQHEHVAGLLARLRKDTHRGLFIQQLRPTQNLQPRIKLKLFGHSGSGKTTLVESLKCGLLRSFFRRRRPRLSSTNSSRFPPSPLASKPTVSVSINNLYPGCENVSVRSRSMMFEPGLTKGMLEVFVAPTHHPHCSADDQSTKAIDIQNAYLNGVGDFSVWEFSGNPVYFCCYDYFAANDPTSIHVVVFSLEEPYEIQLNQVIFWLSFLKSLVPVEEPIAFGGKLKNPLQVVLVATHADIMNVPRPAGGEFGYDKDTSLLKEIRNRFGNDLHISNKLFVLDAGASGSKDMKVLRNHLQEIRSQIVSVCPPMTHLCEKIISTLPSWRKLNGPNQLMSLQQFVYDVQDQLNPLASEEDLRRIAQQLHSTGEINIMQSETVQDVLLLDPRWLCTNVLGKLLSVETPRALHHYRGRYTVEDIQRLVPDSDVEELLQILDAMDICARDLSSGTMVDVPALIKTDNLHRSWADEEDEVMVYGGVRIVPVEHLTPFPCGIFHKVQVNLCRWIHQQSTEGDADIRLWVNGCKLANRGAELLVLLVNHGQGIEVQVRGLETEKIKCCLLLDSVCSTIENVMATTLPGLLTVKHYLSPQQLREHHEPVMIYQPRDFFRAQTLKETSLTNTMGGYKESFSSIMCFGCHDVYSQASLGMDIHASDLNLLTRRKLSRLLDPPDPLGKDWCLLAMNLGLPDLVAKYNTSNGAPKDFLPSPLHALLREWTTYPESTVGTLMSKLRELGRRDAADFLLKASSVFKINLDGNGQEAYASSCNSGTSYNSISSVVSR", "UniProt P37173, sequence (whole entry, looked up)": "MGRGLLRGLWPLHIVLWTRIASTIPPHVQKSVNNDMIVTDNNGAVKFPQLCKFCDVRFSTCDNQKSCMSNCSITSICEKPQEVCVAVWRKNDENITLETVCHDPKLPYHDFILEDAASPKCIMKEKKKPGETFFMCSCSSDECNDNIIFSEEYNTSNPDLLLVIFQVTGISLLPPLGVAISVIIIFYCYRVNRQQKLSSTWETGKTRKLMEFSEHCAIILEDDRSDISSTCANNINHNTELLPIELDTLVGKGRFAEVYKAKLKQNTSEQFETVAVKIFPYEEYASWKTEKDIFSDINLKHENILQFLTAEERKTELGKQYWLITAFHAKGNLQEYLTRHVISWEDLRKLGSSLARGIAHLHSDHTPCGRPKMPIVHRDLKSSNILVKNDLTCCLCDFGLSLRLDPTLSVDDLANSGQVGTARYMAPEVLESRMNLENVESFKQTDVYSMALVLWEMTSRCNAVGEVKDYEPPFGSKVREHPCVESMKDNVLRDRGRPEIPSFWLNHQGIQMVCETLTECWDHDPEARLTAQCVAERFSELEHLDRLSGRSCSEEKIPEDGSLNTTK", "UniProt Q9UBF8, sequence (whole entry, looked up)": "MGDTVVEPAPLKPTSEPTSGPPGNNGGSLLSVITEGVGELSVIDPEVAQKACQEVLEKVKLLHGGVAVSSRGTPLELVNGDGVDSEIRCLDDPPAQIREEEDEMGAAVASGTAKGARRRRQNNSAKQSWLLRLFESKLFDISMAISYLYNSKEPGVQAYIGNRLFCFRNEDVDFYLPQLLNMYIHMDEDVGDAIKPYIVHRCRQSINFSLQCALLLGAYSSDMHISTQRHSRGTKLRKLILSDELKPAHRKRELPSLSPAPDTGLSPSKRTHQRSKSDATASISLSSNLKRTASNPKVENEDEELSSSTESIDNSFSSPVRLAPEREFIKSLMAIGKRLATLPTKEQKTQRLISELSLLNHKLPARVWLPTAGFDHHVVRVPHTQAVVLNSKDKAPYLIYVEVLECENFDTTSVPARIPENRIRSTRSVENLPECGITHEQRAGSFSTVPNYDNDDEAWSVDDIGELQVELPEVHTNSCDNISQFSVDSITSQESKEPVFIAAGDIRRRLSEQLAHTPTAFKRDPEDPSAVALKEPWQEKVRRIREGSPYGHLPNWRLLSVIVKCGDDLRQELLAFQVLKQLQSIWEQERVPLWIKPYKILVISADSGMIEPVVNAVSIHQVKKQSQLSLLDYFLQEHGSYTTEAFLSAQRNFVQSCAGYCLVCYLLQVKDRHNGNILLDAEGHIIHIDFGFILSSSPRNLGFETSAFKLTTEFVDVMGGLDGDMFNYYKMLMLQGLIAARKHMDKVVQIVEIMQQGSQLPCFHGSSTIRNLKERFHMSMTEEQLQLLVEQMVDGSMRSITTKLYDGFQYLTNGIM", "UniProt P07948, sequence (whole entry, looked up)": "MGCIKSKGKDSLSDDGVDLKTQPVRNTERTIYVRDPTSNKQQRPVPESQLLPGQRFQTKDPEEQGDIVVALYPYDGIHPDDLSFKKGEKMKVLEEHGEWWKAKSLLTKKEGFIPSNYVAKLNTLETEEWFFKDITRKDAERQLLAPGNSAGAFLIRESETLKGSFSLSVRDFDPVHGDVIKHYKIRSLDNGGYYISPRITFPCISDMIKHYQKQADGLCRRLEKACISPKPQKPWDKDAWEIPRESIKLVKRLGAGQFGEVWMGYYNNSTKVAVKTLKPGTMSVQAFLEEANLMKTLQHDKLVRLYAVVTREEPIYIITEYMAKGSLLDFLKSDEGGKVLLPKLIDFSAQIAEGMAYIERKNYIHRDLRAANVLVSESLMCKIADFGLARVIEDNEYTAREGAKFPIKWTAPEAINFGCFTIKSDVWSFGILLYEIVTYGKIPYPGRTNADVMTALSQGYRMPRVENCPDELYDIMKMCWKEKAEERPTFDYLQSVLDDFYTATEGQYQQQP", "UniProt Q13976, sequence (whole entry, looked up)": "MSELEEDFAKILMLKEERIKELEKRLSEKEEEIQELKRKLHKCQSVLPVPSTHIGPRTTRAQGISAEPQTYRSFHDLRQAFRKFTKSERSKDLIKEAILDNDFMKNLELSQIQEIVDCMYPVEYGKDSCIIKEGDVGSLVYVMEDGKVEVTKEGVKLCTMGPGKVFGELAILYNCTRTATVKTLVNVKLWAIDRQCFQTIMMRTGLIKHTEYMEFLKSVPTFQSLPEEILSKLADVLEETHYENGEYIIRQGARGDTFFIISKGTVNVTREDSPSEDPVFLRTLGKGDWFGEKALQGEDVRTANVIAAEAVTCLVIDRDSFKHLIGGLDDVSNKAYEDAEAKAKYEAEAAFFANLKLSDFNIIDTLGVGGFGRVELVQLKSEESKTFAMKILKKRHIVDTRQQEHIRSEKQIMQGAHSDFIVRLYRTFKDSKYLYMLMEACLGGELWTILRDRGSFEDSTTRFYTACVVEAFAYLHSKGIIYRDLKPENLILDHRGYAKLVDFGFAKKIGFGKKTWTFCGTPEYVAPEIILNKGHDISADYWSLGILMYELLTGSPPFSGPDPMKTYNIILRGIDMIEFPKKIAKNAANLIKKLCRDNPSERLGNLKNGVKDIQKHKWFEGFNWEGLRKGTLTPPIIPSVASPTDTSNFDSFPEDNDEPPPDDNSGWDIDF"}
{"data": "Series 1", "SMILES": "CCC(=O)N[C@@H]1CC[C@H](C(=O)N(C)c2ccc(-c3nc4ccccc4o3)cc2)C1", "effect on": "cell-free assay", "technique": "competition with immobilised ligand", "tested at": "1 µM"}
{"target": "MYLK (Homo sapiens, UniProt Q15746)", "remaining binding [%]": 62}
{"target": "BRSK2 (Homo sapiens, UniProt Q8IWQ3)", "remaining binding [%]": 76}
{"target": "PIK3C3 (Homo sapiens, UniProt Q8NEB9)", "remaining binding [%]": 100}
{"target": "CAMK1G (Homo sapiens, UniProt Q96NX5)", "remaining binding [%]": 100}
{"target": "Tyrosine-protein kinase JAK1, JH2 (JAK1, Homo sapiens, UniProt P23458)", "remaining binding [%]": 88}
{"target": "BRAF (Homo sapiens, UniProt P15056)", "remaining binding [%]": 96}
{"target": "NLK (Homo sapiens, UniProt Q9UBE8)", "remaining binding [%]": 100}
{"target": "eIF-2-alpha kinase GCN2, C-terminal kinase domain (EIF2AK4, Homo sapiens, UniProt Q9P2K8, S808G)", "remaining binding [%]": 54}
{"target": "TTK (Homo sapiens, UniProt P33981)", "remaining binding [%]": 100}
{"target": "CAMK2D (Homo sapiens, UniProt Q13557)", "remaining binding [%]": 100}
{"target": "ROCK2 (Homo sapiens, UniProt O75116)", "remaining binding [%]": 100}
{"target": "PIK3CD (Homo sapiens, UniProt O00329)", "remaining binding [%]": 100}
{"target": "CSNK1G2 (Homo sapiens, UniProt P78368)", "remaining binding [%]": 100}
{"target": "CDK14 (Homo sapiens, UniProt O94921)", "remaining binding [%]": 100}
{"target": "MAP2K2 (Homo sapiens, UniProt P36507)", "remaining binding [%]": 100}
{"target": "KIT (Homo sapiens, UniProt P10721, D816H)", "remaining binding [%]": 100}
{"target": "DAPK1 (Homo sapiens, UniProt P53355)", "remaining binding [%]": 100}
{"target": "PIK3CB (Homo sapiens, UniProt P42338)", "remaining binding [%]": 100}
{"target": "EGFR (Homo sapiens, UniProt P00533, del747-752/P753S)", "remaining binding [%]": 75}
{"target": "CAMK2G (Homo sapiens, UniProt Q13555)", "remaining binding [%]": 100}
{"target": "PI4KB (Homo sapiens, UniProt Q9UBF8)", "remaining binding [%]": 100}
{"target": "PRKCE (Homo sapiens, UniProt Q02156)", "remaining binding [%]": 93}
{"target": "MST1R (Homo sapiens, UniProt Q04912)", "remaining binding [%]": 100}
{"data": "Series 2", "target": "Microphthalmia-associated transcription factor, full length (MITF, Homo sapiens, UniProt O75030-10, residues 1-413)", "technique": "protein-binding microarray", "form": "double-stranded DNA, one strand shown", "matrix": "in vitro", "tested at": "not given", "setting": "k-mer, scored over probes, only values ≥0.25", "direction": "higher = stronger binding", "Target sequence (chain)": "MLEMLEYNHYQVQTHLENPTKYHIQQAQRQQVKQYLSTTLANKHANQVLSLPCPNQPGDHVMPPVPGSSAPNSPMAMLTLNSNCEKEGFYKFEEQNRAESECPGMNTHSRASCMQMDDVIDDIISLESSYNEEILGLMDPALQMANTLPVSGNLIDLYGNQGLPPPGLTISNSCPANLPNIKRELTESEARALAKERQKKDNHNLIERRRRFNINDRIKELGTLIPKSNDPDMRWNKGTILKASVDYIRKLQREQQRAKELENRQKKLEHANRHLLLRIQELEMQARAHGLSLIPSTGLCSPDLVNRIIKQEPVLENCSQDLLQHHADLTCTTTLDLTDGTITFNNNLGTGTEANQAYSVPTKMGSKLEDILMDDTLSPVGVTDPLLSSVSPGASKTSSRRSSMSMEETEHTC"}
{"Sequence": "CATGTGA", "E-score": 0.483}
{"Sequence": "CACACGA", "E-score": 0.3}
{"Sequence": "CACATGA", "E-score": 0.476}
{"Sequence": "ACGTGCC", "E-score": 0.315}
{"Sequence": "CACGTGG", "E-score": 0.491}
{"Sequence": "CAGGTGA", "E-score": 0.402}
{"Sequence": "AGGGAGG", "E-score": 0.28}
{"Sequence": "CATGTGC", "E-score": 0.439}
{"data": "Series 3", "target": "Interferon regulatory factor 7, full length, phosphomimetic (IRF7, Homo sapiens, UniProt Q92985, residues 1-503, S101K/S471D/S472D/S475D/S476D/S477D/S483D/S484D/S487D)", "technique": "protein-binding microarray", "form": "double-stranded DNA, one strand shown", "matrix": "in vitro", "tested at": "250 nM", "setting": "60-bp whole probe", "together with": "salmon DNA 0.4 mg/ml", "reference": "random background probes", "direction": "higher = stronger binding", "constant ends, left off below": "GCCTAGCAC … GTCTTGATTCGCTTGACGCTGCTG", "UniProt Q92985, sequence (whole entry, unmodified, looked up)": "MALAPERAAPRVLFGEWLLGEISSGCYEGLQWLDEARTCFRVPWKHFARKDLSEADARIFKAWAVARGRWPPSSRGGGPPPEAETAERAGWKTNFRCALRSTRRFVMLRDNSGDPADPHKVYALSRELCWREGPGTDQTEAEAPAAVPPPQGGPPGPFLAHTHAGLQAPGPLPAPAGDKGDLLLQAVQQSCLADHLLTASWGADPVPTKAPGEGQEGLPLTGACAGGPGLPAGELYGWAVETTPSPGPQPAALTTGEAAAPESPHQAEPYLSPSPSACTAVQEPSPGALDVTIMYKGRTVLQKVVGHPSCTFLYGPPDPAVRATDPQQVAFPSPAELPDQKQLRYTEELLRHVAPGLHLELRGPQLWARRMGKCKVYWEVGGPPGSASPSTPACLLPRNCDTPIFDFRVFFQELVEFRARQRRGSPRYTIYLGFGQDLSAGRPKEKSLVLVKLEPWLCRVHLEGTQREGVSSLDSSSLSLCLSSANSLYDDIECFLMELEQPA"}
{"Sequence": "TCACTTATGATATATATAACTGTGCTA", "log fluorescence [z-score]": 0.742}
{"Sequence": "TCATGTGTCTTAAATAGGACTGTGCTA", "log fluorescence [z-score]": 0.308}
{"Sequence": "TCATGGCTGACTTTGGAACTGTGCTAG", "log fluorescence [z-score]": -0.68}
{"Sequence": "TTAGATATCTGGACTGGATTAGTGCTA", "log fluorescence [z-score]": 0.045}
{"Sequence": "ACAAGTTTCTCCTTTGTAAAGTGCTAG", "log fluorescence [z-score]": 3.06}
{"Sequence": "GACGGTCTCCTTATCCTCACGTGCTAG", "log fluorescence [z-score]": 0.261}
{"Sequence": "GATGGTTCCGGTTTCGGGACGTGCTAG", "log fluorescence [z-score]": 8.1}
{"Sequence": "TCAGCTTCCCAATTCTCACTGTGCTAG", "log fluorescence [z-score]": 0.912}
{"data": "Series 4", "Structure (SMILES)": "O=c1cc(N2CCOCC2)oc2c(-c3ccccc3)cccc12", "effect on": "enzyme activity", "mode": "inhibitor", "tested at": "0.5 µM", "reference": "control"}
{"target": "CAMK2D (Homo sapiens, UniProt Q13557)", "remaining activity [%]": 100}
{"target": "Tyrosine-protein kinase Lyn, isoform B (LYN, Homo sapiens, UniProt P07948)", "remaining activity [%]": 99.4}
{"target": "GRK3 (Homo sapiens, UniProt P35626)", "remaining activity [%]": 99.8}
{"target": "IKBKE (Homo sapiens, UniProt Q14164)", "remaining activity [%]": 100}
{"target": "Protein kinase C beta type, isoform beta-I (PRKCB, Homo sapiens, UniProt P05771)", "remaining activity [%]": 96}
{"target": "PRKACA (Homo sapiens, UniProt P17612)", "remaining activity [%]": 98.3}
{"target": "DAPK2 (Homo sapiens, UniProt Q9UIK4)", "remaining activity [%]": 126}
{"target": "STK10 (Homo sapiens, UniProt O94804)", "remaining activity [%]": 97.1}
{"target": "NEK2 (Homo sapiens, UniProt P51955)", "remaining activity [%]": 89.8}
{"target": "CHEK2 (Homo sapiens, UniProt O96017)", "remaining activity [%]": 93.7}
{"target": "OXSR1 (Homo sapiens, UniProt O95747)", "remaining activity [%]": 118}
{"target": "cGMP-dependent protein kinase 1, isoform beta (PRKG1, Homo sapiens, UniProt Q13976)", "remaining activity [%]": 104}
{"target": "PRKCA (Homo sapiens, UniProt P17252)", "remaining activity [%]": 97.5}
{"target": "STK11 (Homo sapiens, UniProt Q15831)", "remaining activity [%]": 101}
{"target": "CAMKK2 (Homo sapiens, UniProt Q96RR4)", "remaining activity [%]": 83.3}
{"target": "MAPK9 (Homo sapiens, UniProt P45984)", "remaining activity [%]": 102}
{"target": "DAPK1 (Homo sapiens, UniProt P53355)", "remaining activity [%]": 90.1}
{"target": "STK39 (Homo sapiens, UniProt Q9UEW8)", "remaining activity [%]": 78.4}
{"target": "Cyclin-dependent kinase 4, with cyclin D1 (CDK4, Homo sapiens, UniProt P11802)", "remaining activity [%]": 111}
{"target": "TGFBR1 (Homo sapiens, UniProt P36897)", "remaining activity [%]": 97.5}
{"target": "IKBKB (Homo sapiens, UniProt O14920)", "remaining activity [%]": 100}
{"target": "MAP3K3 (Homo sapiens, UniProt Q99759)", "remaining activity [%]": 93.4}
{"target": "Cyclin-dependent kinase 5, with p25 (CDK5, Homo sapiens, UniProt Q00535)", "remaining activity [%]": 86.7}
{"target": "TGFBR2 (Homo sapiens, UniProt P37173)", "remaining activity [%]": 142}
{"note": "Some of these lines once more (series 3):"}
{"Sequence": "ACAAGTTTCTCCTTTGTAAAGTGCTAG", "log fluorescence [z-score]": 3.06}
{"Sequence": "GATGGTTCCGGTTTCGGGACGTGCTAG", "log fluorescence [z-score]": 8.1}
{"Sequence": "TCACTTATGATATATATAACTGTGCTA", "log fluorescence [z-score]": 0.742}
{"Sequence": "TCATGTGTCTTAAATAGGACTGTGCTA", "log fluorescence [z-score]": 0.308}
{"Sequence": "TCATGGCTGACTTTGGAACTGTGCTAG", "log fluorescence [z-score]": -0.68}
